Measurements of several laboratories.
Numbered parts are unrelated; each lists some results of a single study.
Chain of UniProt O15294 (whole entry, looked up): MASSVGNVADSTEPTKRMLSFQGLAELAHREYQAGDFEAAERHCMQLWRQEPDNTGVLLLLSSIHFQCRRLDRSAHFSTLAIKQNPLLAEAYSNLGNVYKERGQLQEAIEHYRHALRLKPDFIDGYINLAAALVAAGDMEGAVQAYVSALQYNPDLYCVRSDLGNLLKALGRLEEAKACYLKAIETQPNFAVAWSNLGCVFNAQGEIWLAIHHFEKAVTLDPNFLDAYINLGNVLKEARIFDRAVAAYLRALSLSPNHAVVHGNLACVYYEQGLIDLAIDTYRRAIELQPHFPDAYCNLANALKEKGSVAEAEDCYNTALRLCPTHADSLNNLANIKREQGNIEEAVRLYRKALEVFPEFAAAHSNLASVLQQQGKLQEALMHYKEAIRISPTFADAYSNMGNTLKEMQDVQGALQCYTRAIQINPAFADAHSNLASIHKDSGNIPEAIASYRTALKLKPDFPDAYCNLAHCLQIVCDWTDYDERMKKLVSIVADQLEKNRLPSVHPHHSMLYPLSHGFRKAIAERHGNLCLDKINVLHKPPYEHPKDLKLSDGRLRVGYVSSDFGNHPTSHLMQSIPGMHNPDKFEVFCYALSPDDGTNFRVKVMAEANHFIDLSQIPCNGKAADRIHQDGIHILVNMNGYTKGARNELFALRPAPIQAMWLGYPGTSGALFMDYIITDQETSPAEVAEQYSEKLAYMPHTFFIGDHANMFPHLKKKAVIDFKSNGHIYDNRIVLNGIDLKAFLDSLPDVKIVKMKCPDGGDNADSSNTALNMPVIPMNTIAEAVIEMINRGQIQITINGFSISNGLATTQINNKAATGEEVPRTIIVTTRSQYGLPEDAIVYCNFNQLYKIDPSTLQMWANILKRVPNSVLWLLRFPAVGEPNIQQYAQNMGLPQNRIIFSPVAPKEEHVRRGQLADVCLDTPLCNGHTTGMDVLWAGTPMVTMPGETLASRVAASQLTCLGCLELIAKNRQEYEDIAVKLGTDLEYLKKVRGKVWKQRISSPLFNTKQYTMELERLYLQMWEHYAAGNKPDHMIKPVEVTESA
Chain of UniProt P38919 (whole entry, looked up): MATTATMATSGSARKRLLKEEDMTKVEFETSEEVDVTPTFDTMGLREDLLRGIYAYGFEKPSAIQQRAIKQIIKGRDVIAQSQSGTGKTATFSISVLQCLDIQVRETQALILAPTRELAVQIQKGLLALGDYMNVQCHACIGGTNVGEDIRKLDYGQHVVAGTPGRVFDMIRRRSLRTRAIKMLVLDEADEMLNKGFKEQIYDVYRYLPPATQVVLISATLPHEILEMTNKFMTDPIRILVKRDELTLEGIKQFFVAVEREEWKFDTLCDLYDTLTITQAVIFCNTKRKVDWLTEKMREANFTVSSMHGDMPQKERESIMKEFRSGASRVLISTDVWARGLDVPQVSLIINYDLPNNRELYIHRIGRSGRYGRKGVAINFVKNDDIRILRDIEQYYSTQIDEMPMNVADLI

Block 1
Target: PABPC1L2, full length, GST fusion (mouse, UniProt A0ABA7IW68)
Method: RNAcompete
Molecule type: RNA
Sample: in vitro
Concentration: 20 nM
Notes: 7-mer, probes averaged, single round
Reference: mean of 7-mers
Reading: higher = stronger binding
Target sequence (chain): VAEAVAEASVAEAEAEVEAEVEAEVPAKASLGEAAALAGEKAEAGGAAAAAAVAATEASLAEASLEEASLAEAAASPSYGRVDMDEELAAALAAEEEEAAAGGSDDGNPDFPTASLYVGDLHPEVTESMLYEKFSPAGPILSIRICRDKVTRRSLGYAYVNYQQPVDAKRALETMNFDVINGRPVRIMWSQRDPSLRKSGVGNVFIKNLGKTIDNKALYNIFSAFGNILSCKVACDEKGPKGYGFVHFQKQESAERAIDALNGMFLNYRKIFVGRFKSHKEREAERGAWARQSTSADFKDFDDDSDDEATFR
The 7-mer Z-score of `CAGCAGA` is reported as 0.186.
With `AGGGCUG` the 7-mer Z-score was 0.253.
`UCGGGCU` gave a 7-mer Z-score of -0.121.
`CCCCUUU` gave a 7-mer Z-score of -0.302.
The 7-mer Z-score of `GCCAUAA` is reported as 0.0714.
`ACUAUGG` has a 7-mer Z-score of 0.0334.
For `GGCAUAG`, the 7-mer Z-score was -0.0699.
The 7-mer Z-score of `ACAAUUU` is reported as 0.138.

Block 2
Target: Probable WRKY transcription factor 33, C-terminal DNA-binding domain (WRKY33, Arabidopsis thaliana, UniProt Q8S8P5, residues 346-449)
Method: DNA-protein interaction ELISA
Molecule type: double-stranded DNA, one strand shown
Sample: in vitro, bacterial lysate
Concentration: not given
Notes: whole dsDNA probe, crude lysate protein
Reference: highest signal in screen
Reading: higher = stronger binding
Target sequence (chain): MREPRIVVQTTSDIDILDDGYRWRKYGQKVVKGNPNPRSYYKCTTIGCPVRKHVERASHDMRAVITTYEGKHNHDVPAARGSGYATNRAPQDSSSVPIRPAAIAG
`AAAAAATGTTGTTGCTGTTGGTCCTAAAAA` gave a relative absorbance of 33.7 % of maximum.
For `AAAAAAGGGCCCACTATCGACGTCAAAA`, the relative absorbance was 55 % of maximum.
For `AAAAAATGTTTTTTAGAGGTGTGCAAAAAA`, the relative absorbance was 33.6 % of maximum.
The relative absorbance of `AAAAAATCGCGAACGTACGTCCGCGGAAAA` is reported as 37.3 % of maximum.
`AAAAAATGACCAGGCCTCGAGCAAAAA` gave a relative absorbance of 55.6 % of maximum.
The relative absorbance of `AAAAAATTCTAACTTAGCCTATGTCCAAAA` is reported as 57.9 % of maximum.
`AAAAAATCATTTTATTTTGCCTTTCTAAAA` gave a relative absorbance of 30.9 % of maximum.
The relative absorbance of `AAAAAAACTTCTGTCCCTGTTCCCGTAAAA` is reported as 58 % of maximum.

Other studies, line by line
`COc1ccc([C@@]23Oc4cc(OC)cc(OC)c4[C@]2(O)[C@H](O)C[C@H]3c2ccccc2)cc1`: “fluorescence polarization change” 41.2 mP (Eukaryotic initiation factor 4A-III (Homo sapiens, UniProt P38919); RNA clamping, fluorescence polarization; concentration not given, together with: FAM-labelled poly r(AG)8 RNA).
For `NLHHYAKWLASIDH`, “minimum log2 enrichment ratio” read 1.48 (OGT (Homo sapiens, UniProt O15294); binding, phage display NGS; peptide; panning round 2; reference: input library).

Some of these lines once more (block 1):
`UCGGGCU` gave a 7-mer Z-score of -0.121.
`CCCCUUU` gave a 7-mer Z-score of -0.302.
The 7-mer Z-score of `GCCAUAA` is reported as 0.0714.
